Results collected from several papers.
Protocols differ between the studies behind these lines. “And” joins repeats or separate records; there may be more than shown. ± marks the error that the study gave.
NAA80: N-alpha-acetyltransferase 80 (NAA80, Homo sapiens, UniProt Q93015)
Sequence of UniProt Q93015 (whole entry, looked up): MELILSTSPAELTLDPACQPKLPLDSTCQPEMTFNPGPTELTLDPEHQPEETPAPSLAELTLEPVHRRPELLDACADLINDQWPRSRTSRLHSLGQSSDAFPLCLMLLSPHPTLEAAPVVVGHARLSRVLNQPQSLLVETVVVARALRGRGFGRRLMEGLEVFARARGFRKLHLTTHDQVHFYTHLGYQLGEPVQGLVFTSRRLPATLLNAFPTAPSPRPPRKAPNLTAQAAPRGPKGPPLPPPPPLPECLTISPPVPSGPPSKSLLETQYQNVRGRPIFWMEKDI
CALM1 Ca2+-bound N-lobe: Calmodulin-1, Ca2+-bound N-lobe (CALM1, Homo sapiens, UniProt P0DP23)
Genome polyprotein NS3 helicase domain: Genome polyprotein, NS3 helicase domain (Hepatitis C virus genotype 1b, UniProt Q9WMX2)
WD repeat-containing protein 91 WD40 domain, residues 392–747: WD repeat-containing protein 91, WD40 domain, residues 392–747 (Homo sapiens, UniProt A4D1P6)
Sequence of UniProt A4D1P6 (whole entry, looked up): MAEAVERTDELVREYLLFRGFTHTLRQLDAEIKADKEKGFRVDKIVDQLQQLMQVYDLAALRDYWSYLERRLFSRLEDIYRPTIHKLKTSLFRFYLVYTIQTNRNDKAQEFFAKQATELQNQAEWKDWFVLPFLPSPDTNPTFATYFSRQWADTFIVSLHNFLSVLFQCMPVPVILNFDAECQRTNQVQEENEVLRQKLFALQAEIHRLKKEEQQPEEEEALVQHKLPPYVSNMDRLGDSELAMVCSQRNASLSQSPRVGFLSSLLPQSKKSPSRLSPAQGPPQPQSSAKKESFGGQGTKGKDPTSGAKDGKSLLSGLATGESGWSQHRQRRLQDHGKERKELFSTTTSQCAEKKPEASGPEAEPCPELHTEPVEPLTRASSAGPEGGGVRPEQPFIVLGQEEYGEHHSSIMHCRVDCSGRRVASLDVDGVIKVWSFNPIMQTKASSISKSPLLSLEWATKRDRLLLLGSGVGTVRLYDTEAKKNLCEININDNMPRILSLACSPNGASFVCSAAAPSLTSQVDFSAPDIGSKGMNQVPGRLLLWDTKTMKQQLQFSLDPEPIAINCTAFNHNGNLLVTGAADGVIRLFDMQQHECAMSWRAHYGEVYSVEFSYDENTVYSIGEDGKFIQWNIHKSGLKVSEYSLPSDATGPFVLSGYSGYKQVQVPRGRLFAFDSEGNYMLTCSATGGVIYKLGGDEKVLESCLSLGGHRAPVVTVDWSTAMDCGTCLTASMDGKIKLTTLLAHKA
Glutamate receptor 2: Glutamate receptor 2 (Homo sapiens, UniProt P42262)
Sequence of UniProt P42262 (whole entry, looked up): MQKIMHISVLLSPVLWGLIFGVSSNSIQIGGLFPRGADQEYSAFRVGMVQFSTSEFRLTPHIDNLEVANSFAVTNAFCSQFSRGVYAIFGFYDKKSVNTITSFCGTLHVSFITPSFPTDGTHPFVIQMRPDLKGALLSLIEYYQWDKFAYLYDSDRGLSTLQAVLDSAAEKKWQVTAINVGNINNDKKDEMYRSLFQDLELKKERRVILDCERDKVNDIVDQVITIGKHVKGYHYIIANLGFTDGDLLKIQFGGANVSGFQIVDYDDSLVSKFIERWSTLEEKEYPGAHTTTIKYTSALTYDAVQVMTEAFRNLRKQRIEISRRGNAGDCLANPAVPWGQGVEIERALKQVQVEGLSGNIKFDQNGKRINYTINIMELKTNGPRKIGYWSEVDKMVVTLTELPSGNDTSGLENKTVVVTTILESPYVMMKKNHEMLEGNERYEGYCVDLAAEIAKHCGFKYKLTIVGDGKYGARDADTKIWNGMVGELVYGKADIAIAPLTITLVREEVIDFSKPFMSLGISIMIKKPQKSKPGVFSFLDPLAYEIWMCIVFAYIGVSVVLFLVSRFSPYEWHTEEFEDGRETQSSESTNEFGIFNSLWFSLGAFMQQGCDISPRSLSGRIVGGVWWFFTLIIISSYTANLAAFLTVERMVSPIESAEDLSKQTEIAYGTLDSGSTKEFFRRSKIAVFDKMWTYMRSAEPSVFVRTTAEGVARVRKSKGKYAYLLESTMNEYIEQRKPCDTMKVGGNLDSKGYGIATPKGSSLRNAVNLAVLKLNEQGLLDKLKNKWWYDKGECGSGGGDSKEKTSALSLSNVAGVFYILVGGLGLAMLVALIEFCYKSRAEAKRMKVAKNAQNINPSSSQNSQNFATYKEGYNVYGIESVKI
ESR1: Estrogen receptor (ESR1, Homo sapiens, UniProt P03372)
Sequence of UniProt P19801 (whole entry, looked up): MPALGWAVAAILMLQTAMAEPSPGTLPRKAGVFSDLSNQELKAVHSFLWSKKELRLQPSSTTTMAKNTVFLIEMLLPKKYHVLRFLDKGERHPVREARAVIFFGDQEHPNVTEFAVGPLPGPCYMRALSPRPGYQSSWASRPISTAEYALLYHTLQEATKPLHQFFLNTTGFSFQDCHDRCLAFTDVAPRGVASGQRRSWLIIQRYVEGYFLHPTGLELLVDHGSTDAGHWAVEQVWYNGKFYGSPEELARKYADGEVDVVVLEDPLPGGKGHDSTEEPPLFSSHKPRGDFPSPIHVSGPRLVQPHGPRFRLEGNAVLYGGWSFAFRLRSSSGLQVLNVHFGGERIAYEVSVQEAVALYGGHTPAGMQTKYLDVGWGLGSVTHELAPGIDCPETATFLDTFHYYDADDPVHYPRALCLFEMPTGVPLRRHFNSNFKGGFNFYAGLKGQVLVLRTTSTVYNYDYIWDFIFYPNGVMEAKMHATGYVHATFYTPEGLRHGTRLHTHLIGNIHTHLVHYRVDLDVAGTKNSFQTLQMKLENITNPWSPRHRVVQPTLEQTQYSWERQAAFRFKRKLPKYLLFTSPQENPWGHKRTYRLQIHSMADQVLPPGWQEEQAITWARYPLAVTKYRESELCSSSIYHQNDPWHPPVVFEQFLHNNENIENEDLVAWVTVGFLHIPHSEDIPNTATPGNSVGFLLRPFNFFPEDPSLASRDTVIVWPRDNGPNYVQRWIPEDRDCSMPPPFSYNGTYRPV
Sequence of UniProt P51575 (whole entry, unmodified, looked up): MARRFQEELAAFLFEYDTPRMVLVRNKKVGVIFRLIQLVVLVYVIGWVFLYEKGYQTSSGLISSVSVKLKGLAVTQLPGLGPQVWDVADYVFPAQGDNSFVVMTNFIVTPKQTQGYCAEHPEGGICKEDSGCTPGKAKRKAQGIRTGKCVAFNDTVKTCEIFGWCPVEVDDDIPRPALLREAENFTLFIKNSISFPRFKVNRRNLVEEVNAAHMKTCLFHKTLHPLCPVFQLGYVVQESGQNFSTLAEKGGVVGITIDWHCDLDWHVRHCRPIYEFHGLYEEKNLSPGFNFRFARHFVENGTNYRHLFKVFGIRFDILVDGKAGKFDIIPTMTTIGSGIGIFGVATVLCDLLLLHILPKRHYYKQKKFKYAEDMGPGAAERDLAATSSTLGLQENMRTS
Sequence of UniProt P03372 (whole entry, looked up): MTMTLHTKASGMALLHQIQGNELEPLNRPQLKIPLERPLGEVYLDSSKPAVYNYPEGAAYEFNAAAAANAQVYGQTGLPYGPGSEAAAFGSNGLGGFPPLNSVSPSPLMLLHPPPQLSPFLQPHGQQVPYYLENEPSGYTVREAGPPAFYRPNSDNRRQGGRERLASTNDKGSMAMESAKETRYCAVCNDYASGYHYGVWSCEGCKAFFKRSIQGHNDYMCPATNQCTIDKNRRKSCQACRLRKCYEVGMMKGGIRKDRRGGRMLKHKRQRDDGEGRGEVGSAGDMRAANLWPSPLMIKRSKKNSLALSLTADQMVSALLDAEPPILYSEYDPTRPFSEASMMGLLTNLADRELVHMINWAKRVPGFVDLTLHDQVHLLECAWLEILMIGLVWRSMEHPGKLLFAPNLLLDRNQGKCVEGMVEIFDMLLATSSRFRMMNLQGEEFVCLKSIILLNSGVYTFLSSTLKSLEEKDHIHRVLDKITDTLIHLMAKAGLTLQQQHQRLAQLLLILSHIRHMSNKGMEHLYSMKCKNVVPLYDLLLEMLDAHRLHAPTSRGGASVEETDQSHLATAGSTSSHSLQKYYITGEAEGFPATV
Sequence of UniProt P21554 (whole entry, looked up): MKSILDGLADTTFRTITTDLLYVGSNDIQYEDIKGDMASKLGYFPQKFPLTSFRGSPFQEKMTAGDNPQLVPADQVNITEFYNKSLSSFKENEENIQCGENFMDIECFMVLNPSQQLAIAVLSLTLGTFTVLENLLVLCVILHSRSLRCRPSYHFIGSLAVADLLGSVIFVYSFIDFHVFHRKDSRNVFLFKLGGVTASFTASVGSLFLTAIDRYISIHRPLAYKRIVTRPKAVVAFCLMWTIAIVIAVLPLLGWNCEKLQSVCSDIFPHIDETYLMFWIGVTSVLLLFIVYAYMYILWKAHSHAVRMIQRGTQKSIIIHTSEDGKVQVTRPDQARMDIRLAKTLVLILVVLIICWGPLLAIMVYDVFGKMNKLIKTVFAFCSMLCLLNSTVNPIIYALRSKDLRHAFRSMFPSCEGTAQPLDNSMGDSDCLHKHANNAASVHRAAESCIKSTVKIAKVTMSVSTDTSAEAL
Sequence of UniProt P30291 (whole entry, looked up): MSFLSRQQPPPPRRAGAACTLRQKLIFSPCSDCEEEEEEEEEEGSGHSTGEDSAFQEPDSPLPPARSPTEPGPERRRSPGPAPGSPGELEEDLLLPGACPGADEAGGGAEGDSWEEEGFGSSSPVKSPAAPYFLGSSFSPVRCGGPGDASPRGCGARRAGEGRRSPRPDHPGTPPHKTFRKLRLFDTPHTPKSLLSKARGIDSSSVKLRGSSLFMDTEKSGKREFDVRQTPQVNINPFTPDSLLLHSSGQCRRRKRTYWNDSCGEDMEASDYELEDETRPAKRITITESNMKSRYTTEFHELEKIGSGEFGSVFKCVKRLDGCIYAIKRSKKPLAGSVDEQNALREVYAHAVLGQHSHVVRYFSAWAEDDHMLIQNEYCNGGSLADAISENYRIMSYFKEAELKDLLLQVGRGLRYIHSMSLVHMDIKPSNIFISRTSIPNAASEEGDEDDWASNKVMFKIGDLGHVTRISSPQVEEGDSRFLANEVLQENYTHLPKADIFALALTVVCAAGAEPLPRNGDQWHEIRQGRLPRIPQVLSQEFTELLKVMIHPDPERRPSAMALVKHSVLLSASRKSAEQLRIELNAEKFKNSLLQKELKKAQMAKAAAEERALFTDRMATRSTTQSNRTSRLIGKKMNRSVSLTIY
Sequence of UniProt P04117 (whole entry, looked up): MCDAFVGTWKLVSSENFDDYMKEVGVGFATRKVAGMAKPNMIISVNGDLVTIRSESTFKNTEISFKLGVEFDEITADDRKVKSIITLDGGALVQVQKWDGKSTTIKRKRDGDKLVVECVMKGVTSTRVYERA

`NC(=O)C[C@H](N)C(=O)O` has a product formation of 0.09 µM (NAA80; substrate, DTNB; 2 mM, 30 min, 37 °C, added: acetyl-CoA 500 µM).
`N=C(N)Nc1nc2ccccc2[nH]1` has a Hill coefficient of 0.84 ± 0.05 (Voltage-gated hydrogen channel 1 (HVCN1, Homo sapiens, UniProt Q96D96, F182A); proton current, inhibitor, inside-out patch clamp).
With `NCCCCNCCCN` the product formation was -0.7 µM (NAA80; substrate, DTNB; 2 mM, 30 min, 37 °C, added: acetyl-CoA 500 µM).
With `CC[C@H](C)[C@H](NC(=O)[C@H](CCSC)NC(=O)[C@H](CCSC)NC(=O)[C@H](C)NC(=O)[C@H](C)NC(=O)[C@H](Cc1ccc(O)cc1)NC(=O)[C@H](C)NC(=O)[C@H](CCCCN)NC(=O)CNC(=O)[C@@H](NC(=O)[C@@H](NC(=O)[C@H](CCSC)NC(=O)[C@H](Cc1c[nH]cn1)NC(=O)CN)[C@@H](C)O)C(C)C)C(=O)N[C@@H](CCSC)C(=O)N[C@@H](CCC(=O)O)C(=O)N[C@@H](Cc1ccc(O)cc1)C(=O)N[C@@H](Cc1ccc(O)cc1)C(=O)N[C@@H](CCCNC(=N)N)C(=O)N[C@@H](CCC(N)=O)C(=O)N[C@@H](CO)C(=O)N[C@@H](CCCCN)C(=O)N[C@@H](C)C(=O)N[C@@H](CCCCN)C(=O)N[C@@H](CCCCN)C(=O)N[C@@H](CC(C)C)C(=O)N[C@@H](CCC(N)=O)C(=O)N[C@@H](C)C(=O)N[C@@H](CCSC)C(=O)N[C@@H](CCCNC(=N)N)C(=O)O` the stoichiometry was 0.93 ± 0.03 (CALM1 Ca2+-bound N-lobe; binding, isothermal titration calorimetry; pH 7.4, 15 °C, N-lobe, CaV2.1 IQ domain, added: Ca2+).
`NC/C(=C\F)COc1cccc(Cn2c(=S)[nH]c(=O)c3[nH]cnc32)c1` has an enzyme activity of 0.9 and 0.91 and 0.92 and 0.85 and 0.88 (Diamine oxidase [copper-containing] (AOC1, Homo sapiens, UniProt P19801); substrate turnover, DAO oxidation; concentration not given, unit not given; reference: DMSO control).
`CC(C)c1cccc(C(C)C)c1N1C(=O)c2ccc(O)cc2C1=O` gave an inhibition of 0% (Genome polyprotein NS3 helicase domain; DNA binding, inhibitor; hepatitis C virus; 100 µM, added: Cy5-dT15 DNA).
Under binding, `O=C(O)/C=C(/CC(=O)O)C(=O)O` is recorded as “no binding” (Egl nine homolog 1 (EGLN1, Homo sapiens, UniProt Q9GZT9); inhibitor, CPMG NMR displacement; 400 µM, pH 7.5, added: 10 µM reporter ligand).
For `CCN1CCN(c2cc(N3CCN(CC)CC3)nc(NCCNc3ccnc4cc(Cl)ccc34)n2)CC1`, the activation was 1.76 ± 0.09 fold (Nuclear receptor subfamily 4 group A member 3, ligand-binding domain (Homo sapiens, UniProt Q92570); reporter gene, Gal4 hybrid reporter; 10 µM; reference: vehicle).
With `COCCOC(=O)NC1CCN(c2ncnc3c2nc(-c2ccccc2Cl)n3-c2ccc(Cl)cc2)CC1` the selectivity ratio was greater than 200 (Cannabinoid receptor 1 (CNR1, Homo sapiens, UniProt P21554); binding, [3H]CP55940 displacement; reference: Ki CB2 over Ki CB1).
`O=C(COP(=O)(O)O)[C@@H](O)[C@H](O)[C@H](O)COP(=O)(O)O` — result for “thermal stability ratio”: 0.526 (Crk-like protein (Homo sapiens, UniProt P46109); thermal proteome profiling; HepG2 cell lysate; 57 over 37 °C; reference: compound over control).
`CC1(C)CC2(C)OC(=O)NC2(C)c2ccccc21` (stereo not drawn) — result for “log fold enrichment”: 0.116 (Transducin-like enhancer protein 4 (TLE4, Homo sapiens, UniProt Q04727); binding, affinity selection mass spectrometry; reference: other proteins in batch).
With `COc1ccccc1N(C)S(=O)(=O)c1ccc(C(=O)N2CCC(C#N)CC2)cc1` the SPR response was -0.8 RU and -1.3 RU (WD repeat-containing protein 91 WD40 domain, residues 392–747; binding, SPR single-concentration screen; 45 µM).
The Hill coefficient of `O=C(Nc1cccc2c(=O)cc(-c3nnn[nH]3)oc12)c1ccc(OCCCCc2ccccc2)cc1` is reported as 0.7 (Volume-regulated anion channel subunit LRRC8C, part LRRC8A IL1 chimera (LRRC8C, Homo sapiens, UniProt Q8TDW0); ion current, inhibitor, whole-cell patch clamp; HCT116 LRRC8 knockout, transfected; -100 mV, hypotonic swelling, normal ionic strength).
`COc1ccccc1-c1n[nH]c2nc(N[C@H]3CC[C@H](NS(=O)(=O)CCCOCCOCCNC(=O)OC(C)(C)C)CC3)ncc12`: “log2 SILAC ratio heavy/light” 4.4 (cdc2-related kinase 12 (Leishmania donovani, UniProt A0A3S7WQK2); resin binding competition; promastigote lysate; 10 µM; reference: DMSO).
`CC(C)COCC(CN(Cc1ccccc1)c1ccccc1)N1CCCC1` (stereo not drawn) gave an inhibition of 0% (Genome polyprotein NS3 helicase domain; DNA binding, inhibitor; hepatitis C virus; 100 µM, added: Cy5-dT15 DNA).
The potentiation of `CC(C)NCC(O)COc1cccc2ccccc12` (stereo not drawn) is reported as 105% (Glutamate receptor 2; ion current, positive allosteric modulator, SyncroPatch patch clamp; HEK293; 30 µM).
With `CC[C@H](C)[C@H](NC(=O)[C@H](CCC(=O)O)NC(=O)[C@H](CCC(=O)O)NC(=O)[C@@H]1CCCN1C(=O)[C@H](CC(=O)O)NC(=O)[C@H](C)NC(=O)[C@H](CCC(N)=O)NC(=O)[C@@H](NC(=O)[C@H](C)NC(=O)[C@@H](NC(=O)[C@H](CO)NC(=O)[C@@H](NC(=O)[C@H](CCCCN)NC(=O)[C@@H](N)Cc1ccc(O)cc1)[C@@H](C)O)C(C)C)[C@@H](C)O)C(=O)N[C@H](C(=O)N[C@H](C(=O)N[C@@H](CC(C)C)C(=O)N[C@@H](CC(=O)O)C(=O)N[C@@H](CC(=O)O)C(=O)N[C@@H](CC(=O)O)C(=O)N[C@@H](CC(=O)O)C(=O)O)C(C)C)[C@@H](C)CC` the ΔG was -8.16 ± 0.06 kcal/mol (Small ubiquitin-related modifier 2 (Homo sapiens, UniProt P61956, C48A); binding, ITC; pH 7.4, 298.15 K).
Under kinase activity, `COc1ccc([C@H]2N(c3ccc(Cl)c(Cl)c3)C(=O)[C@@H]3CCCN32)c(OC)c1OC` (racemic) is recorded as “no effect” (Death-associated protein kinase 1 (DAPK1, Homo sapiens, UniProt P53355); enzyme activity, inhibitor, ADP-Glo; 100 µM).
`Cc1[nH]c(C)c(S(=O)(=O)Nc2ccc(C(F)(F)F)c(Cl)c2)c1C(=O)N1CCC(F)(F)C1` — result for “cooperativity factor α”: 8.7 (D(3) dopamine receptor (DRD3, Homo sapiens, UniProt P35462); allosteric modulator, ternary complex model; added: pramipexole, [3H]methylspiperone).
`COC(=O)c1sc(-c2cccs2)cc1NC(=O)/C=C/C(=O)O` — result for FRET: “no effect” (Fatty acid-binding protein, adipocyte, with HSL (Fabp4, Mus musculus, UniProt P04117); FABP4-HSL interaction; 1 µM, added: 20 µM forskolin).
`CC(C)(C=O)Cc1cc(C(C)(C)C)c(O)c(C(C)(C)C)c1` has an inhibition of 0% (Genome polyprotein NS3 helicase domain; DNA binding, inhibitor; hepatitis C virus; 100 µM, added: Cy5-dT15 DNA).
For `O=C(NC1CCCS(=O)(=O)c2ccccc21)c1ccc2nc(O)cnc2c1` (stereo not drawn), the SPR response was 0.813 RU (WD repeat-containing protein 91 (Homo sapiens, UniProt A4D1P6); binding, SPR steady state; 0.1172 µM).
`CNC(=O)c1cc2c(cn1)[nH]c1ccccc12` has an inhibition of 0% (Genome polyprotein NS3 helicase domain; DNA binding, inhibitor; hepatitis C virus; 100 µM, added: Cy5-dT15 DNA).
`CCCc1cc(=O)oc2cc(OCc3cc(=O)c(O)co3)ccc12` has a β-Turn content of 16.9% (PPO3 (Agaricus bisporus, UniProt C7FF04); secondary structure of tyrosinase, CD spectroscopy; molar ratio 1:1).
The displacement of `CCOc1cc(-c2nncn2C)ccc1Nc1ncc2cc(C)nc(NCC(C)(C)C)c2n1` is reported as 36% (Wee1-like protein kinase (WEE1, Homo sapiens, UniProt P30291); binding, LanthaScreen binding; 1 µM).
`CC(C)=CCc1c(O)ccc(C(=O)/C=C/c2ccc(O)cc2)c1O` has a selectivity ratio of 24 (ESR1; array formation; PRL-HeLa; reference: EC50 ERβ over EC50 ERα).
For `N#CC1CCN(C(=O)c2ccc(CCc3c[nH]c4nc(N)[nH]c(=O)c34)cc2)CC1`, the binding was 6% and -10% (WD repeat-containing protein 91 WD40 domain, residues 392–747; SPR; 45 µM).
For `COc1cc(O)c2c(c1)oc(=O)c1c3cc(O)c(O)cc3oc21`, the ΔG was -1.47 kcal/mol (Alpha-glucosidase MAL12 (MAL12, Saccharomyces cerevisiae S288c, UniProt P53341); fluorescence quenching; 310 K).
For `C=CC(=O)N1CCC(COCC(=O)N2CCN(c3nc(-c4cnc(N)nc4C(F)F)nc(N4CCOC[C@@H]4C)n3)CC2)CC1`, the remaining binding was 100% (Calcium/calmodulin-dependent protein kinase type II subunit delta (CAMK2D, Homo sapiens, UniProt Q13557); KINOMEscan; 1 µM).
`CC[C@H](C)[C@H](NC(=O)[C@H](CCSC)NC(=O)[C@H](CCSC)NC(=O)[C@H](C)NC(=O)[C@H](C)NC(=O)[C@H](Cc1ccc(O)cc1)NC(=O)[C@@H](NC(=O)[C@H](CCCCN)NC(=O)CNC(=O)[C@@H](NC(=O)[C@@H](NC(=O)[C@H](CCSC)NC(=O)[C@H](Cc1c[nH]cn1)NC(=O)CN)[C@@H](C)O)C(C)C)[C@@H](C)CC)C(=O)N[C@@H](C)C(=O)N[C@@H](CCC(=O)O)C(=O)N[C@@H](Cc1ccc(O)cc1)C(=O)N[C@@H](Cc1ccc(O)cc1)C(=O)N[C@@H](CCCNC(=N)N)C(=O)N[C@@H](CCC(N)=O)C(=O)N[C@@H](CO)C(=O)N[C@@H](CCCCN)C(=O)N[C@@H](C)C(=O)N[C@@H](CCCCN)C(=O)N[C@@H](CCCCN)C(=O)N[C@@H](CC(C)C)C(=O)N[C@@H](CCC(N)=O)C(=O)N[C@@H](C)C(=O)N[C@@H](CCSC)C(=O)N[C@@H](CCCNC(=N)N)C(=O)O` gave a ΔΔG of 1.16 (CALM1 Ca2+-bound N-lobe; binding, isothermal titration calorimetry; N-lobe, CaV2.1 IQ domain, unit not given, added: Ca2+; reference: wild-type IQ domain).
`CCCN1C[C@H](CSC)C[C@@H]2c3cccc4[nH]cc(c34)C[C@H]21` gave a potentiation of 89% (Glutamate receptor 2; ion current, positive allosteric modulator, SyncroPatch patch clamp; HEK293; 3 µM).
The inhibition of `CC[C@@H]1Cc2cc(O)ccc2C2=C1c1ccc(O)cc1C[C@H]2CC` is reported as 0% (Genome polyprotein NS3 helicase domain; DNA binding, inhibitor; hepatitis C virus; 100 µM, added: Cy5-dT15 DNA).
The binding of `N#Cc1cccc2c1CC[C@H]2NC(=O)c1ccc(S(=O)(=O)NCc2ccco2)cc1` is reported as 78% and 81% (WD repeat-containing protein 91, residues 392–747 (Homo sapiens, UniProt A4D1P6); SPR dose-response titration; concentration not given, 1:1 binding model).
`N#C/C(=C\c1ccc(O)c(O)c1)C(=O)NCCCNC(=O)/C(C#N)=C/c1ccc(O)c(O)c1` has an inhibition of 37% (Genome polyprotein NS3 helicase domain; DNA binding, inhibitor; hepatitis C virus; 100 µM, added: Cy5-dT15 DNA).
For `O=c1cc(-c2ccc(O)cc2)oc2cc(O)c(O)c(O)c12`, the selectivity ratio was 0.728 (ESR1; array formation; PRL-HeLa; reference: EC50 ERβ over EC50 ERα).
`C=CC(=O)Nc1cc(S(=O)(=O)N(C)C)ccc1Cl` has an FP signal of 110% (14-3-3 protein sigma, with ERα phosphopeptide (SFN, Homo sapiens, UniProt P31947); binding, fluorescence polarization; covalent ligand screen, added: phosphorylated ERalpha peptide; reference: control).
`O=c1ccc2ccc(O)c(O)c2o1` has an inhibition of 0% (Genome polyprotein NS3 helicase domain; DNA binding, inhibitor; hepatitis C virus; 100 µM, added: Cy5-dT15 DNA).
The SPR response of `N#CC1CCN(C(=O)c2ccc(NS(=O)(=O)c3ccc4c(c3)OCCO4)cc2)CC1` is reported as -0.2 RU and -4.9 RU (WD repeat-containing protein 91 WD40 domain, residues 392–747; binding, SPR single-concentration screen; 45 µM).
`COc1cc(/C=C/c2cc(/C=C/c3ccc(O)c(OC)c3)n(-c3cccc([N+](=O)[O-])c3)n2)ccc1O` gave a binding stoichiometry of 0.55 ± 0.17 (haemin; isothermal titration calorimetry; concentration not given, pH 7.4, 37 °C).
`CNC(=O)c1ccc(C(=O)Nc2ccc3c(=O)[nH]c(-c4ccc(C(C)(C)O)cc4)nc3c2)cc1` has a selectivity ratio of 26.9 (Poly [ADP-ribose] polymerase tankyrase-2 (TNKS2, Homo sapiens, UniProt Q9H2K2); PARylation, inhibitor, biochemical PARylation; reference: TNKS1 IC50 over TNKS2 IC50).
`Nc1ncnc2c1ncn2[C@@H]1O[C@H](COP(=O)(O)CP(=O)(O)OP(=O)(O)O)[C@@H](O)[C@H]1O` gave a calcium influx of 79% and 82.4% and 66.6% (P2X purinoceptor 1 (P2RX1, Homo sapiens, UniProt P51575, E282A); calcium influx; 100 nM; reference: ionomycin response).
The kcat of `Nc1ccn([C@H]2C[C@H](O)[C@@H](COP(=O)(O)OP(=O)(O)OP(=O)(O)O)O2)c(=O)n1` is reported as 8.33e-05 s⁻¹ (DNA polymerase lambda (POLL, Homo sapiens, UniProt Q9UGP5, Y505A); substrate, primer extension gel; Y505A mutant, AP-site template).
